{"data": "Results collected from several papers", "note": "Each line is one published result; not all experiments were run side by side. “And” joins repeats or separate records; there may be more than shown. ± marks the error that the study gave."}
{"SMILES": "N=C(N/N=C/c1ccc[nH]1)N/N=C/c1ccc[nH]1", "cell line": "IMR-90", "test": "cell growth or viability, crystal violet", "conditions": "72 h", "IC50": "21.6 µM"}
{"SMILES": "CN(C)CCN1CCN(c2ccc(Oc3ccc(F)cc3F)c(-c3cn(C)c(=O)c4[nH]ccc34)c2)S1(=O)=O", "cell line": "Light II cells", "test": "GLI reporter gene, inhibitor", "conditions": "Hedgehog pathway", "IC50": "0.0719 ± 0.00543 µM"}
{"SMILES": "CC(C)(C)/C=C(\\C#N)C(=O)Nc1cccc(Oc2nc(Nc3ccc(N4CCN(C(=O)CNc5cccc6c5C(=O)N(C5CCC(=O)NC5=O)C6=O)CC4)cc3)nc3ccoc23)c1 (stereo not shown)", "cell line": "MINO", "test": "cell growth or viability", "IC50": "~0.01 µM"}
{"SMILES": "C1=[N+]2CCCC[N+]3=Cc4ccc5[n]4[Au-]23[n]2c1ccc2-c1nc2ccccc2nc1-5.F[P-](F)(F)(F)(F)F", "cell line": "SF-268", "test": "cell growth", "IC50": "1.4 µM"}
{"SMILES": "C[O][Pt-2]1([Cl])([Cl])([O]C(=O)CCC(=O)O)[NH2+]CC[N+]1(C)C", "cell line": "CH1", "test": "cell growth or viability, MTT", "conditions": "96 h", "IC50": "12 µM"}
{"SMILES": "CC1=C/C(=N\\N=C(/S)Nc2cccnc2)CC(C)(C)C1", "cell line": "HCC4017", "test": "cell growth or viability, MTS", "conditions": "96 h", "IC50": "> 50 µM"}
{"SMILES": "CCCCc1ccc(C(=O)O[C@@H]2CC(=O)O[C@H](C)C/C=C/C=C/[C@H](O[C@H]3CC[C@H](N(C)C)[C@@H](C)O3)[C@H](C)C[C@H](CC=O)[C@H](O[C@@H]3O[C@H](C)[C@@H](O[C@H]4C[C@@](C)(O)[C@@H](O)[C@H](C)O4)[C@H](N(C)C)[C@H]3O)[C@H]2OC)cc1", "cell line": "HGC-27", "test": "cell growth or viability, CCK-8", "conditions": "72 h", "IC50": "0.92 µM"}
{"SMILES": "CC(=O)O[C@@H]1[C@H](OC(C)=O)[C@@H](C)O[C@H]1n1cc(F)c(NC(=O)/C=C/c2ccc(O)c(O)c2)nc1=O", "cell line": "BxPC-3", "test": "cell viability, MTT", "conditions": "72 h", "IC50": "23 µM and 23.2 µM"}
{"SMILES": "O=C(O[C@@H]1Cc2c(O)cc(O)cc2O[C@@H]1c1cc(O)c(O)c(O)c1)c1cc(O)c(O)c(O)c1", "cell line": "A-431", "test": "cell growth or viability, CCK-8", "conditions": "24 h", "IC50": "53.8 µM"}
{"SMILES": "COc1c(C)c(OS(=O)(=O)c2ccccc2)c(C)c(O)c1C(=O)/C=C/c1ccccc1", "cell line": "KKU-M213", "test": "cell growth or viability, SRB", "conditions": "72 h", "IC50": "23.8 µM"}
{"SMILES": "COc1nc(Nc2nc(O)c3ccccc3n2)nc2ccc(C)cc12", "cell line": "LDR", "test": "cell viability, MTS", "conditions": "4 days", "IC50": "1.2 µM"}
{"SMILES": "CC(=O)OC1CC2C(C)(C)C(O)CCC2(C)C2CCC34CC3(CCC4C(C)CC3OC(C)(C)OC(C)(C)C3O)C12C (stereo not shown)", "cell line": "fibroblasts", "test": "cytotoxicity, MTT", "IC50": "18.4 ± 1.1 µM"}
{"SMILES": "Cc1c(C)n(-c2c(C(C)C)cccc2C(C)C)c(=[Se])n1-c1c(C(C)C)cccc1C(C)C.[Cl][Au]", "cell line": "A-431", "test": "cell growth or viability, MTT", "conditions": "72 h", "IC50": "0.3 µM"}
{"SMILES": "CC(C)=CCC1=C([O-])C(=O)c2ccccc2C1=O.O=[N+]([O-])[O-].[Cu+2].c1ccc(-c2cccc(-c3ccccn3)n2)nc1", "cell line": "A2780", "test": "cell viability, MTT", "conditions": "24 h", "IC50": "7.1 ± 0.6 µM"}
{"SMILES": "Cc1ccc(C(C)C)cc1.Oc1ccccc1C=NNC1=Nc2ccccc2-c2[nH]c3ccc(Br)cc3c2C1.[Cl-].[Cl][Ru+]", "cell line": "CH1", "test": "cell growth or viability, MTT", "conditions": "96 h", "IC50": "0.67 µM"}
{"SMILES": "CCN(CC)Cn1nc(-c2ccccc2)cc1-c1ccccc1", "cell line": "3T3-L1", "test": "cell growth or viability, MTT", "IC50": "113 µg/mL"}
{"SMILES": "COc1cc2c(cc1/C(C)=N/N)CCC1C(C)(C)c3nc(C)ncc3C[C@]21C (mixture of isomers)", "cell line": "TM3", "test": "cell growth or viability, SRB", "conditions": "24 h", "IC50": "> 100 µM"}
{"SMILES": "CCCCCCCCC=CCCCCCCCC(=O)OCC1OC(n2ccc(N)nc2=O)C(F)(F)C1O (stereo not shown)", "cell line": "LOX", "test": "cell growth", "IC50": "0.0077 ± 0.0028 µM"}
{"SMILES": "COc1cc(NC(=O)c2cccc(F)c2)ccc1C(=O)Nc1ccc(Cl)c(-c2ncc(-c3ccccc3)[nH]2)c1", "cell line": "NIH3T3-Gli-Luc", "test": "Hedgehog signalling, Gli-luciferase reporter", "conditions": "added: Shh-conditioned medium", "IC50": "0.31 ± 0.09 µM"}
{"note": "A few entries again:"}
{"SMILES": "O=C(O[C@@H]1Cc2c(O)cc(O)cc2O[C@@H]1c1cc(O)c(O)c(O)c1)c1cc(O)c(O)c(O)c1", "cell line": "A-431", "test": "cell growth or viability, CCK-8", "conditions": "24 h", "IC50": "53.8 µM"}
{"SMILES": "Cc1c(C)n(-c2c(C(C)C)cccc2C(C)C)c(=[Se])n1-c1c(C(C)C)cccc1C(C)C.[Cl][Au]", "cell line": "A-431", "test": "cell growth or viability, MTT", "conditions": "72 h", "IC50": "0.3 µM"}
{"SMILES": "COc1cc(NC(=O)c2cccc(F)c2)ccc1C(=O)Nc1ccc(Cl)c(-c2ncc(-c3ccccc3)[nH]2)c1", "cell line": "NIH3T3-Gli-Luc", "test": "Hedgehog signalling, Gli-luciferase reporter", "conditions": "added: Shh-conditioned medium", "IC50": "0.31 ± 0.09 µM"}
